Results gathered from unrelated publications.
Protocols differ between the studies behind these lines. ± marks the error that the study gave. Where no end group is shown, it is not given here.
B1: UGT1A9 (Homo sapiens, UniProt O60656); chain GKLLVVPMDGSHWFTMRSVVEKLILRGHEVVVVMPEVSWQLGRSLNCTVKTYSTSYTLEDLDREFKAFAHAQWKAQVRSIYSLLMGSYNDIFDLFFSNCRSLFKDKKLVEYLKESSFDAVFLDPFDNCGLIVAKYFSLPSVVFARGILCHYLEEGAQCPAPLSYVPRILLGFSDAMTFKERVRNHIMHLEEHLLCHRFFKNALEIASEILQTPVTEYDLYSHTSIWLLRTDFVLDYPKPVMPNMIFIGGINCHQGKPLPMEFEAYINASGEHGIVVFSLGSMVSEIPEKKAMAIADALGKIPQTVLWRYTGTRPSNLANNTILVKWLPQNDLLGHPMTRAFITHAGSHGVYESICNGVPMVMMPLFGDQMDNAKRMETKGAGVTLNVLEMTSEDLENALKAVINDKSYKENIMRLSSLHKDRPVEPLDLAVFWVEFVMRHKGAPHLRPAAHDLTWYQYHSLDVIGFLLAVVLTVAFITFKCCAYGYRKCLGKKGRVKKAHKSKTH

COc1cccc(/C=C/c2nc3ccc(N4CCCCC4)cc3c(=O)n2-c2cccc(C(C)(C)C)c2)n1 — inhibition (Zika virus; viral replication, inhibitor; Vero; 0.3 µM): 0%
CCOC(=O)CSc1nnc(C23CC4CC(CC(C4)C2)C3)n1-c1ccccc1 — inhibition zone (Micrococcus luteus; microbial growth, disc diffusion; IFO3232; 200 µg/disc, 24 h): 14 mm
TDADHVFLRF-NH2 (C-amide) — inhibition (Drosophila melanogaster; gut contraction; adult gut; 1 µM, within 10 min; relative to: DMS effect): 100%
CCN(CC)CCOc1ccc2c(=O)c3c(Cl)c(Cl)ccc3[nH]c2c1 — fully protective curative dose (Plasmodium berghei; male C57BL/6 albino mouse; oral, liver stage, luciferase sporozoites): 40 mg/kg
B1 (UGT1A9) — Vmax (Cc1ccc(C(=O)c2cc(O)c(O)c([N+](=O)[O-])c2)cc1; steady-state kinetics; pH 7.4, 37 °C): 0.0181 µmol/min/mg
TDVDHAFLRF-NH2 (C-amide) — inhibition (Drosophila melanogaster; gut contraction; wandering third instar larval gut; injection, 1 µM, within 10 min; relative to: DMS effect): 91%
CCN(CC)CCCC(C)Nc1ccnc2cc(Cl)ccc12 (stereo not drawn) — parasitaemia suppression (Plasmodium berghei; ANKA, mouse; oral, 3 mg/kg/day for 4 days, day 4): 87 ± 11%
LIYWAST — inhibition (peptide, human polyclonal IgM RF CLAU; concentration not given, 5 µg/mL mAb II-481 coated, with: RF at 50% max binding concentration): 20%
CC(/C=C/C(=O)NO)=C\[C@@H](C)C(=O)c1ccc(N(C)C)cc1 — potency ratio (Lucilia cuprina; larval growth; relative to: diflubenzuron and dicyclanil, fold less potent): 50 to 100 fold
CC[C@H]1OC(=O)[C@H](C)[C@@H](O[C@H]2C[C@@](C)(OC)[C@@H](O)[C@H](C)O2)[C@H](C)[C@@H](O[C@@H]2O[C@H](C)C[C@H](N(C)C)[C@H]2O)[C@](C)(O)C[C@@H](C)C(=O)[C@H](C)[C@@H](O)[C@]1(C)O — susceptible isolates (Streptococcus pyogenes; hospitalized pneumonia patients, clinical isolates; Fine score 70 or more): 100%
NYLAWYQ — inhibition (peptide, human polyclonal IgM RF AGER; concentration not given, 5 µg/mL mAb II-481 coated, with: RF at 50% max binding concentration): 45%
CCCN(CCC)CCOc1ccc2c(=O)c3c(F)cc(F)cc3[nH]c2c1 — fully protective curative dose (Plasmodium berghei; male C57BL/6 albino mouse; oral, liver stage, luciferase sporozoites): 10 mg/kg
CCOC(=O)/C=C/[C@H](C[C@@H]1CCNC1=O)NC(=O)[C@@H](CC(=O)[C@@H](NC(=O)c1cc(C)on1)C(C)C)Cc1ccc(F)cc1 — EC90 (Enterovirus D68; virus yield reduction; RD, US/KY/14-18953; 72 h): 0.004 ± 0.002 µM
insulin lispro — tmax (human, type 1 diabetes; subcutaneous, FAST PK setting, carbohydrate interventions required): 1.62 h
Cc1cc(C(C#N)c2ccc(Cl)cc2)c(Cl)cc1NC(=O)c1cc(I)cc(I)c1O (stereo not drawn) — faecal egg count reduction (Haemonchus contortus; multidrug resistant, sheep; subcutaneous, 5 mg/kg, day 6 post-treatment, with: moxidectin 0.2 mg/kg): 86%
O=C(O)CSc1nnc(C23CC4CC(CC(C4)C2)C3)n1-c1ccccc1 — inhibition zone (Micrococcus luteus; microbial growth, disc diffusion; IFO3232; 200 µg/disc, 24 h): 18 mm
TDVDHVALRF-NH2 (C-amide) — inhibition (Drosophila melanogaster; heart rate; wandering third instar larval heart; 40 nL injected, 1 µM, 10 min; relative to: DMS): 27%
CC1(C)S[C@@H]2[C@H](NC(=O)[C@H](N)c3ccc(O)cc3)C(=O)N2[C@H]1C(=O)O — sensitive strains (Moraxella; community-acquired pneumonia patients; Fine score 70 or more): 0%
GACATACTCT — log2 fold change (Salmonella enterica Typhimurium; RNA-seq, measured: fabF mRNA; peptide, SL1344; 5 µM, 15 min; relative to: untreated): -1.2
O=c1c(O)c(-c2cc(O)c(O)c(O)c2)oc2cc(O)cc(O)c12 — inhibition (Human immunodeficiency virus 1; viral replication, inhibitor; TZM-bl, BAL; 11.1 µM): > 50%
CO/N=C1\C[C@]2(C[C@@H]3C[C@@H](C/C=C(\C)C[C@@H](C)/C=C/C=C4\CO[C@@H]5[C@H](O)C(C)=C[C@@H](C(=O)O3)[C@]45O)O2)O[C@H](/C(C)=C/C(C)C)[C@H]1C — faecal egg count reduction (Haemonchus contortus; multidrug resistant, sheep; subcutaneous, 0.2 mg/kg, day 10 post-treatment, with: closantel 5 mg/kg): 97%
Nisin A — inhibition zone diameter (Lactococcus lactis; deferred antagonism overlay; HP, GM17 agar; concentration not given, produced by spotted strain): 17 ± 0.27 mm
gypsogenin — ED50 (Leishmania mexicana; parasite killing, alamarBlue; axenic amastigotes; 24 h, 33 °C): < 10.5 µM
TDVAHVFLRF-NH2 (C-amide) — inhibition (Drosophila melanogaster; heart rate; wandering third instar larval heart; 40 nL injected, 1 µM, 10 min; relative to: DMS): 27%
Cc1ncnc2c1c(CCC1CC1)cn2[C@@H]1O[C@H](CO)[C@@H](O)[C@H]1O — EC50 (Leishmania infantum; parasite growth, imaging; mouse Macrophage; 5 days, intracellular, amastigote): > 64 µM
COc1ccc2c(C[Se][C@@H]3O[C@H](CO)[C@H](O)[C@H](O)[C@H]3O)cc(=O)oc2c1 — biosensor oxidation (Trypanosoma brucei brucei; flow cytometry; bloodstream form, hGrx1-roGFP2; EC50, 1 h; relative to: diamide 500 µM maximum and minimum oxidation): 20%
CCCCc1cc2c(=O)c(I)c[nH]c2cc1OCCOc1ccccc1 — parasitemia inhibition (Plasmodium berghei; mouse; oral, 50 mg/kg, day 3, single dose in PEG400; relative to: untreated): 53.9%
Insulin human — concentration (ELISA; rat, brainstem; intranasal, 20 µg per nostril, 60 min): 185 ± 98.5 pg/mg tissue
TDVDHVFLAF-NH2 (C-amide) — inhibition (Drosophila melanogaster; gut contraction; adult gut; 1 µM, within 10 min; relative to: DMS effect): 100%
N=C(N)N — EC50 (Enterovirus D68; cytopathic effect, neutral red uptake; HeLa Ohio1, US/KY/14-18953): 66 ± 22 µM
CS(=O)(=O)c1ccc(-c2cnc(N)c(-c3ccc(C(F)(F)F)nc3)c2)cc1 — time to relapse (Plasmodium cynomolgi; Macaca mulatta; 20 mg/kg daily for 5 days, with: chloroquine): 16.7 days
TDVDAVFLRF-NH2 (C-amide) — inhibition (Drosophila melanogaster; gut contraction; adult gut; 1 µM, within 10 min; relative to: DMS effect): 78%
O=C(O)c1cc(O)c(O)c(O)c1 — inhibition (Human immunodeficiency virus 1; viral replication, inhibitor; TZM-bl, NL43; 11.1 µM): ~50%

Repeated from above:
TDVDHVFLAF-NH2 (C-amide) — inhibition (Drosophila melanogaster; gut contraction; adult gut; 1 µM, within 10 min; relative to: DMS effect): 100%
N=C(N)N — EC50 (Enterovirus D68; cytopathic effect, neutral red uptake; HeLa Ohio1, US/KY/14-18953): 66 ± 22 µM
CS(=O)(=O)c1ccc(-c2cnc(N)c(-c3ccc(C(F)(F)F)nc3)c2)cc1 — time to relapse (Plasmodium cynomolgi; Macaca mulatta; 20 mg/kg daily for 5 days, with: chloroquine): 16.7 days
TDVDAVFLRF-NH2 (C-amide) — inhibition (Drosophila melanogaster; gut contraction; adult gut; 1 µM, within 10 min; relative to: DMS effect): 78%
O=C(O)c1cc(O)c(O)c(O)c1 — inhibition (Human immunodeficiency virus 1; viral replication, inhibitor; TZM-bl, NL43; 11.1 µM): ~50%
